Published values gathered from unrelated publications.
Protocols differ between the studies behind these lines.
Cell line: SK-MEL-2

| SMILES | test | setting | scale | quantity | value |
| --- | --- | --- | --- | --- | --- |
| CSc1nc(-c2ccc(Cl)cc2)c2c(NC(=O)c3ccccc3)nnc-2[nH]1 | SRB | 10 µM, NCI60 single-dose screen | reference: untreated | cell growth | 107% |
| C#C[C@@]1(O)[C@@H](CO)O[C@@H](n2ccc3c(N)ncnc32)[C@@H]1O | SRB | NCI-60 screen |  | TGI | 6.32 µM |
| NNc1nc(-c2ccc(Cl)cc2)c2c(NC(=O)c3ccccc3)nnc-2[nH]1 | SRB | 10 µM, NCI60 single-dose screen | reference: untreated | cell growth | 115% |
| CC(C)(C)c1nc(-c2cccc(NS(=O)(=O)c3c(F)cccc3F)c2F)c(-c2ccnc(N)n2)s1 | ERK phosphorylation, activator, Western blot, measured: p-ERK/total ERK | 1 h, concentration for 200% induction |  | EC200 | 14 nM |
| CCOc1ccc(-c2nc3cc(-c4nc5cc(N6CCN(C)CC6)ccc5[nH]4)ccc3[nH]2)cc1OCC | SRB | 10 µM, 48 h |  | growth percent | -17.5% |
| C#C[C@@]1(O)[C@@H](CO)O[C@@H](n2cc(F)c3c(N)ncnc32)[C@@H]1O | SRB | NCI-60 screen |  | TGI | 2.87 µM |
| O=C(Nc1nnc2n3c(nc(-c4ccc(Cl)cc4)c1-2)SCC3=O)c1ccccc1 | SRB | 10 µM, NCI60 single-dose screen | reference: untreated | cell growth | 105% |
| CC(C)(N)c1cc(C(=O)N[C@@H]2CCc3ccc(Oc4ccnc5c4CCC(=O)N5)cc3C2)cc(C(F)(F)F)c1 | ERK phosphorylation, inhibitor, Western blot, measured: p-ERK/total ERK | 1 h |  | IC50 | 3.8 µM |
| CCCN1CCN(c2ccc3[nH]c(-c4ccc5[nH]c(-c6ccc(OCC)c(OCC)c6)nc5c4)nc3c2)CC1 | SRB | 10 µM, 48 h |  | growth percent | -73.9% |
| O=C(Nc1nnc2n3c(Cc4ccccc4)n[nH]c3nc(-c3ccc(Cl)cc3)c1-2)c1ccccc1 | SRB | 10 µM, NCI60 single-dose screen | reference: untreated | cell growth | 113% |
| CCCN1CCN(c2ccc3[nH]c(-c4ccc5[nH]c(-c6cc(OC)c(OC)c(OC)c6)nc5c4)nc3c2)CC1 | SRB | 10 µM, 48 h |  | growth percent | 70.9% |
| O=C(Nc1nnc2n3c(=S)[nH][nH]c3nc(-c3ccc(Cl)cc3)c1-2)c1ccccc1 | SRB | 10 µM, NCI60 single-dose screen | reference: untreated | cell growth | 108% |
| Cc1cc(C)n(C(=S)[S][Au][PH](CCCCCC[PH]([Au][S]C(=S)n2nc(C)cc2C)(c2ccccc2)c2ccccc2)(c2ccccc2)c2ccccc2)n1 | cell growth, NCI-60 screen | melanoma |  | log10 TGI | > -4 |
| CCCCN1CCN(c2ccc3[nH]c(-c4ccc5[nH]c(-c6ccc(OCC)c(OCC)c6)nc5c4)nc3c2)CC1 | SRB | 10 µM, 48 h |  | growth percent | 13.1% |
| CCCS(=O)(=O)Nc1ccc(F)c(C(=O)c2c[nH]c3ncc(-c4ccc(Cl)cc4)cc23)c1F | ERK phosphorylation, activator, Western blot, measured: p-ERK/total ERK | 1 h, concentration for 200% induction |  | EC200 | 68 nM |
| Cn1cncc1C1=CN(c2ncnc3[nH]cnc23)CCS1 |  | melanoma cell line |  | GI50 | 8.9 µM |
| CCCN1CCN(c2ccc3nc(-c4ccc5nc(-c6cc(OC)ccc6OC)[nH]c5c4)[nH]c3c2)CC1 | SRB | 10 µM, 48 h |  | growth percent | 118% |
